Measurements gathered from unrelated publications.
Every numbered part comes from another study and shows a few of its results, in no order. Values joined by “and” are separate records of one study, mostly repeats; a detail may differ.

Sample 1
Target: Tyrosine-protein kinase Blk (BLK, Homo sapiens, UniProt P51451)
Chain of UniProt P51451 (whole entry, looked up): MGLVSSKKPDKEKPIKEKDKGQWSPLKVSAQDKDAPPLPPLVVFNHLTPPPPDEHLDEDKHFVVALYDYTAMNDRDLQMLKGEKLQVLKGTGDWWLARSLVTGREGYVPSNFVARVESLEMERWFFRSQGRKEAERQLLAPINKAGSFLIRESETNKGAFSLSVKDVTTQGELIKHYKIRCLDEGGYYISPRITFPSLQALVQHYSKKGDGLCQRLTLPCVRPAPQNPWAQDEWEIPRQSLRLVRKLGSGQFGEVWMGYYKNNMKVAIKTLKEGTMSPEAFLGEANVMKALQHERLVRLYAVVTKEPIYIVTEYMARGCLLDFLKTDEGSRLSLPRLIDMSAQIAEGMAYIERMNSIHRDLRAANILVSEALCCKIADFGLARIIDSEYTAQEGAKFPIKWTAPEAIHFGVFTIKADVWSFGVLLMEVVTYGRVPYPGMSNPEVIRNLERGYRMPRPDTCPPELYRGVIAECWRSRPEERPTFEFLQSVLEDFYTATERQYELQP
Read-out: enzyme activity
Action: inhibitor
Concentration: 0.5 µM
Reference: control
| Structure (SMILES) | remaining activity [%] |
| --- | --- |
| O=C(NC(NC(=S)Nc1ccc(F)c([N+](=O)[O-])c1)C(Cl)(Cl)Cl)C(c1ccccc1)c1ccccc1 (centres unmarked) | 110 |
| Nc1cccc(-c2cc3c(Oc4cccc(O)c4)ncnc3[nH]2)c1 | 38.1 |
| COc1cc2ncnc(Nc3ccc(O)c(Br)c3)c2cc1OC | 83.8 |
| N#Cc1c(NC(=O)c2cccc3ccccc23)sc2c1CCCC2 | 105 |
| CCN(CC)CCNC(=O)c1c(C)[nH]c(/C=C2\C(=O)Nc3ccc(Cl)cc32)c1C | 15.8 |
| COc1cc2ncnc(Nc3cccc(Cl)c3)c2cc1OC | 68.2 |
| O=C1c2ccccc2-c2n[nH]c3cccc1c23 | 102 |
| CCN(CC)C(=O)c1ccc(Nc2nc(OCC3CCCCC3)c3[nH]cnc3n2)cc1 | 60.9 |
| c1ccc(-c2[nH]ncc2-c2ccnc3ccccc23)nc1 | 99.9 |
| COc1cc2c(cc1OC)-c1[nH]nc(Nc3cccc(F)c3)c1C2 | 74.2 |
| Cc1cc2ncc(-c3ccccc3)nc2cc1C | 96.5 |
| Cc1nc2cc3nc(-c4cccs4)cnc3cc2n1C | 99.8 |
| Cc1cn(-c2cc(NC(=O)c3ccc(C)c(Nc4nccc(-c5cccnc5)n4)c3)cc(C(F)(F)F)c2)cn1 | 87.6 |
| CCN(CC)CCNC(=O)c1c(C)[nH]c(/C=C2\C(=O)Nc3ccc(F)cc32)c1C | 28.7 |
| CN(C)C[C@H]1CCn2c(c(C3=C(c4cn(C)c5ccccc45)C(=O)NC3=O)c3ccccc32)C1 | 103 |
| c1ccc(-c2cnc(Nc3ccc(OCCN4CCCC4)cc3)s2)cc1 | 92 |
| N#C/C(=C\c1ccc(O)c(O)c1)C(=O)NCc1ccccc1 | 95.6 |
| CN([C@@H](Cc1ccc(OS(=O)(=O)c2cccc3cnccc23)cc1)C(=O)N1CCN(c2ccccc2)CC1)S(=O)(=O)c1cccc2cnccc12 | 102 |

Sample 2
Target: Phosphate system positive regulatory protein PHO4, full length, GST-tagged (PHO4, Saccharomyces cerevisiae, UniProt P07270, residues 1-312)
Technique: competition protein-binding microarray
Form: double-stranded DNA, one strand shown
Matrix: in vitro
Concentration: 2 µM
Notes: whole 60-bp probe, lowest competitor level
Added: Cbf1 competitor, 0.05 µM
Reading: higher = stronger binding
Constant ends, left off below: … GTCTTGATTCGCTTGACGCTGCTG
Target sequence (chain): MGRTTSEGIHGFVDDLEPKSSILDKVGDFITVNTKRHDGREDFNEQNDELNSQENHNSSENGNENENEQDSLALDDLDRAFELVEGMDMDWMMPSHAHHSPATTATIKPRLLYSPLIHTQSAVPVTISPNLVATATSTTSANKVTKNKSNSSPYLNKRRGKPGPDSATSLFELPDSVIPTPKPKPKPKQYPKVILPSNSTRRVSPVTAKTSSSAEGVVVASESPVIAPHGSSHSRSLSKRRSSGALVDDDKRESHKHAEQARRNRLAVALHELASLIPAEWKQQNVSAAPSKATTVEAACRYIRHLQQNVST
| Sequence | fluorescence intensity [a.u.] |
| --- | --- |
| AAAGCGGTAATTTGCATCGTGGGTGCAGATATCTAT | 10900 |
| AACATAAGACTAGCTCGCGTGGCCGAATGGCAACGC | 7220 |
| CTTCTGTAAATTTGGTTTGTGGGTGGACGCGCCCCG | 4310 |
| GGGAAATAGACGTCGCACACGCCGAAGTATGTGTCC | 7490 |
| CTAACGAAGGTTTTTCACGTGGCGTACAAGCCAAGT | 13200 |
| ATTCTTGAGAACATCCGCGTGAACCAGAGCAAACAG | 6700 |
| TTGGTGTTTCAGGTATTCGTGCTAATCAACGTTACT | 6420 |
| TTAGAGAATGAAAAGCACGTGGGTACTTCGATTTTG | 18500 |

Sample 3
Target: Histone acetyltransferase KAT6A, winged helix 1, GST fusion (KAT6A, Homo sapiens, UniProt Q92794, residues 1-85)
Technique: protein binding microarray
Form: double-stranded DNA, one strand shown
Matrix: in vitro
Concentration: not given
Notes: 8-mer, flanks averaged, mean of 2 arrays, mostly near background
Reference: not given
Reading: higher = stronger binding
Residues (chain): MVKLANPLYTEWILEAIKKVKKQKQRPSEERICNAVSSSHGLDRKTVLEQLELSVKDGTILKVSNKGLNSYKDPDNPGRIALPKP
| Sequence | E-score |
| --- | --- |
| GAGTTTTA | -0.117 |
| CGACTAGC | 0.13 |
| TCAGCCGA | 0.0935 |
| GCGACGGA | 0.374 |
| TCTAGGCA | -0.21 |
| AGCATATA | -0.187 |
| CTAGCACC | -0.114 |
| GGCACCCC | 0.148 |

Sample 4
Target: Alpha-2B adrenergic receptor (ADRA2B, Homo sapiens, UniProt P18089)
Chain of UniProt P18089 (whole entry, looked up): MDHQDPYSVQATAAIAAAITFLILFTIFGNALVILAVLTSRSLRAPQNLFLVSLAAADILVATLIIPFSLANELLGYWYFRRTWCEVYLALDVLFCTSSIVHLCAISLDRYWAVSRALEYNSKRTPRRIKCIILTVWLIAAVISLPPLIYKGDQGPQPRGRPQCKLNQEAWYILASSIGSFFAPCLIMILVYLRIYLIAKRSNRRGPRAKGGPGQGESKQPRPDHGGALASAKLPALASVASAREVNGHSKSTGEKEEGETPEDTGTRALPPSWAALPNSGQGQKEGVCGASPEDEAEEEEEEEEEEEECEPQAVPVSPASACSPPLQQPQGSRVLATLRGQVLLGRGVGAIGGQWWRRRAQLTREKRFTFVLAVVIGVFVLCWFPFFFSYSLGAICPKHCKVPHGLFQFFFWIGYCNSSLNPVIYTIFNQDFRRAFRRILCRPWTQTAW
Read-out: ligand displacement
Concentration: 10 µM
| Structure (SMILES) | inhibition |
| --- | --- |
| O=C(N[C@H]1CCCCC/C=C\C2C[C@@]2(C(=O)O)NC(=O)[C@@H]2C[C@@H](Oc3ccncc3)CN2C1=O)OC1CCCC1 (some centres unmarked) | 8.15% |
| Cn1nc(C(=O)NCc2ccc(C(=O)O)cc2)cc1-c1ccc2[nH]ccc2c1 | 6% |
| N#CC1(c2ccccn2)CCN(Cc2cc(C(=O)N3CCCC3)c(=O)n3ccccc23)CC1 | -2.99% |

Further values, each from its own experiment
| Compound | cell line | assay | conditions | how to read | endpoint | result |
| --- | --- | --- | --- | --- | --- | --- |
| CC[C@@H](C)c1nc2cc(Nc3ccnc4ccc(S(=O)(=O)C(C)C)cc34)ccc2s1.Cl | L929 | caspase activity, Ac-DEVD-pNA absorbance | 50 µM, 2 h | higher = more activity | caspase-3 activity | 0.03 a.u. and 0.032 a.u. and 0.017 a.u. and 0.019 a.u. |

Excerpt of the above (sample 1):
| Structure (SMILES) | remaining activity [%] |
| --- | --- |
| O=C1c2ccccc2-c2n[nH]c3cccc1c23 | 102 |
| COc1cc2c(cc1OC)-c1[nH]nc(Nc3cccc(F)c3)c1C2 | 74.2 |
| O=C(NC(NC(=S)Nc1ccc(F)c([N+](=O)[O-])c1)C(Cl)(Cl)Cl)C(c1ccccc1)c1ccccc1 (centres unmarked) | 110 |
| CCN(CC)CCNC(=O)c1c(C)[nH]c(/C=C2\C(=O)Nc3ccc(Cl)cc32)c1C | 15.8 |
| Cc1cc2ncc(-c3ccccc3)nc2cc1C | 96.5 |
| CCN(CC)CCNC(=O)c1c(C)[nH]c(/C=C2\C(=O)Nc3ccc(F)cc32)c1C | 28.7 |
